{"data": "Published values collected from several papers", "note": "Lines come from different studies, so protocols differ. “And” joins repeats or separate records; there may be more than shown. ± marks the error that the study gave.", "sequence of UniProt Q3TRM4 (whole entry, looked up)": "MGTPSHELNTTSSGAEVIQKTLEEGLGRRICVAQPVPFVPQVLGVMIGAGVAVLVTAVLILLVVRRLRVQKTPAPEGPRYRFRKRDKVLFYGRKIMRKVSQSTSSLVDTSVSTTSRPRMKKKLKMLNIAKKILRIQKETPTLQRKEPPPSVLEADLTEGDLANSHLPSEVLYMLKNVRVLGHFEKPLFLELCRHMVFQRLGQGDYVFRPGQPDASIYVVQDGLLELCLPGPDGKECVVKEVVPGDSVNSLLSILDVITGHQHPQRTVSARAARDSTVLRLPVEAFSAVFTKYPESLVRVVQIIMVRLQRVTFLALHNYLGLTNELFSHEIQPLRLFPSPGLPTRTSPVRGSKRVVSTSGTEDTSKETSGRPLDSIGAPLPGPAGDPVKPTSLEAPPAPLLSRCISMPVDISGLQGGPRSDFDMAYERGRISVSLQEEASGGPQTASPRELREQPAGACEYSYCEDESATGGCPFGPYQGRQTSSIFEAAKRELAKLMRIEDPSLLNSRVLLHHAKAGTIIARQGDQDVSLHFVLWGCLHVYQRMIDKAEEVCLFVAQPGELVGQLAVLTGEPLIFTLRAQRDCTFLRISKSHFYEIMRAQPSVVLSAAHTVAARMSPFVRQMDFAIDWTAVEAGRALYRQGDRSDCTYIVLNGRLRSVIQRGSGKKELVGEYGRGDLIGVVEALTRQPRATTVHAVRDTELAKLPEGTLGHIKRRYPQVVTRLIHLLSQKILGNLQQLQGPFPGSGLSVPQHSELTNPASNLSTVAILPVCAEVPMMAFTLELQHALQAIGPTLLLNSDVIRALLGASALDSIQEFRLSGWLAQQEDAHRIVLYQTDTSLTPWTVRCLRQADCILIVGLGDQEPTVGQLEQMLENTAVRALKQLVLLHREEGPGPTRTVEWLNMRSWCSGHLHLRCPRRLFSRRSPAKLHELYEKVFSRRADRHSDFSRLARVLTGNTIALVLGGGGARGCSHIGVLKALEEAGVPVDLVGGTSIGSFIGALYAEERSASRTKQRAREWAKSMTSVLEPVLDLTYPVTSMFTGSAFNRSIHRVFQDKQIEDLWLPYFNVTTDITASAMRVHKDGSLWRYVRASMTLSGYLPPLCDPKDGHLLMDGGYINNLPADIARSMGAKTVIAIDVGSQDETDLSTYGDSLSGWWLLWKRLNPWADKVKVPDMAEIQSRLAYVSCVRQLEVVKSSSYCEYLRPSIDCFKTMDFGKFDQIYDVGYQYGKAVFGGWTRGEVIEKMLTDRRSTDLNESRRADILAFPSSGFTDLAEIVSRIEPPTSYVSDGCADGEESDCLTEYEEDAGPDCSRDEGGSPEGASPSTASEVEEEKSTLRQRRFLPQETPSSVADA", "sequence of UniProt A5GZW8 (whole entry, looked up)": "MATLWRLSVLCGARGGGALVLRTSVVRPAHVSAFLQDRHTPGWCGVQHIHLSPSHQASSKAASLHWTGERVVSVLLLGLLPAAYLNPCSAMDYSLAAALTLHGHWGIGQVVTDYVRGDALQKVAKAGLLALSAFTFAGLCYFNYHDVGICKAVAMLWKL", "sequence of UniProt D0VWV4 (whole entry, looked up)": "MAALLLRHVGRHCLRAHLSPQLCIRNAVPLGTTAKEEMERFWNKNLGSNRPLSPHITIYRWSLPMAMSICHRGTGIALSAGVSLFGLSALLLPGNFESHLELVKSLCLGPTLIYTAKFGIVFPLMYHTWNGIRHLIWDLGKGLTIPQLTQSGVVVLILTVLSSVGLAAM", "sequence of UniProt Q007T0 (whole entry, looked up)": "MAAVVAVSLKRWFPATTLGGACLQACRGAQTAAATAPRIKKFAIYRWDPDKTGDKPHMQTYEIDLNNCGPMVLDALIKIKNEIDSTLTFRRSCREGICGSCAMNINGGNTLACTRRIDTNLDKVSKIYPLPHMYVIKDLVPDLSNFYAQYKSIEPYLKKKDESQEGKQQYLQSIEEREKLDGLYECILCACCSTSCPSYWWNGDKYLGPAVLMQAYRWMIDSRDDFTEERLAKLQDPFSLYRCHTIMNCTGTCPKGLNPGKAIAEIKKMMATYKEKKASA", "sequence of UniProt P32246 (whole entry, looked up)": "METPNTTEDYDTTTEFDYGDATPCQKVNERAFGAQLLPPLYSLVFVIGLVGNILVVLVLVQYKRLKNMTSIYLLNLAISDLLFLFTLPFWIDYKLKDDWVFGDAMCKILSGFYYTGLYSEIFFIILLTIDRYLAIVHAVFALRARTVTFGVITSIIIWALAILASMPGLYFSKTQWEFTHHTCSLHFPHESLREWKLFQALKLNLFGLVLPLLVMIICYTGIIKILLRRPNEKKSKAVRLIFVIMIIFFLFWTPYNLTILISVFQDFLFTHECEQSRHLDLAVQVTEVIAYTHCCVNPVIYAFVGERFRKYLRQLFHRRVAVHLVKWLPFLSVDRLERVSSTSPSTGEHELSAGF", "sequence of UniProt Q9Y3S1 (whole entry, looked up)": "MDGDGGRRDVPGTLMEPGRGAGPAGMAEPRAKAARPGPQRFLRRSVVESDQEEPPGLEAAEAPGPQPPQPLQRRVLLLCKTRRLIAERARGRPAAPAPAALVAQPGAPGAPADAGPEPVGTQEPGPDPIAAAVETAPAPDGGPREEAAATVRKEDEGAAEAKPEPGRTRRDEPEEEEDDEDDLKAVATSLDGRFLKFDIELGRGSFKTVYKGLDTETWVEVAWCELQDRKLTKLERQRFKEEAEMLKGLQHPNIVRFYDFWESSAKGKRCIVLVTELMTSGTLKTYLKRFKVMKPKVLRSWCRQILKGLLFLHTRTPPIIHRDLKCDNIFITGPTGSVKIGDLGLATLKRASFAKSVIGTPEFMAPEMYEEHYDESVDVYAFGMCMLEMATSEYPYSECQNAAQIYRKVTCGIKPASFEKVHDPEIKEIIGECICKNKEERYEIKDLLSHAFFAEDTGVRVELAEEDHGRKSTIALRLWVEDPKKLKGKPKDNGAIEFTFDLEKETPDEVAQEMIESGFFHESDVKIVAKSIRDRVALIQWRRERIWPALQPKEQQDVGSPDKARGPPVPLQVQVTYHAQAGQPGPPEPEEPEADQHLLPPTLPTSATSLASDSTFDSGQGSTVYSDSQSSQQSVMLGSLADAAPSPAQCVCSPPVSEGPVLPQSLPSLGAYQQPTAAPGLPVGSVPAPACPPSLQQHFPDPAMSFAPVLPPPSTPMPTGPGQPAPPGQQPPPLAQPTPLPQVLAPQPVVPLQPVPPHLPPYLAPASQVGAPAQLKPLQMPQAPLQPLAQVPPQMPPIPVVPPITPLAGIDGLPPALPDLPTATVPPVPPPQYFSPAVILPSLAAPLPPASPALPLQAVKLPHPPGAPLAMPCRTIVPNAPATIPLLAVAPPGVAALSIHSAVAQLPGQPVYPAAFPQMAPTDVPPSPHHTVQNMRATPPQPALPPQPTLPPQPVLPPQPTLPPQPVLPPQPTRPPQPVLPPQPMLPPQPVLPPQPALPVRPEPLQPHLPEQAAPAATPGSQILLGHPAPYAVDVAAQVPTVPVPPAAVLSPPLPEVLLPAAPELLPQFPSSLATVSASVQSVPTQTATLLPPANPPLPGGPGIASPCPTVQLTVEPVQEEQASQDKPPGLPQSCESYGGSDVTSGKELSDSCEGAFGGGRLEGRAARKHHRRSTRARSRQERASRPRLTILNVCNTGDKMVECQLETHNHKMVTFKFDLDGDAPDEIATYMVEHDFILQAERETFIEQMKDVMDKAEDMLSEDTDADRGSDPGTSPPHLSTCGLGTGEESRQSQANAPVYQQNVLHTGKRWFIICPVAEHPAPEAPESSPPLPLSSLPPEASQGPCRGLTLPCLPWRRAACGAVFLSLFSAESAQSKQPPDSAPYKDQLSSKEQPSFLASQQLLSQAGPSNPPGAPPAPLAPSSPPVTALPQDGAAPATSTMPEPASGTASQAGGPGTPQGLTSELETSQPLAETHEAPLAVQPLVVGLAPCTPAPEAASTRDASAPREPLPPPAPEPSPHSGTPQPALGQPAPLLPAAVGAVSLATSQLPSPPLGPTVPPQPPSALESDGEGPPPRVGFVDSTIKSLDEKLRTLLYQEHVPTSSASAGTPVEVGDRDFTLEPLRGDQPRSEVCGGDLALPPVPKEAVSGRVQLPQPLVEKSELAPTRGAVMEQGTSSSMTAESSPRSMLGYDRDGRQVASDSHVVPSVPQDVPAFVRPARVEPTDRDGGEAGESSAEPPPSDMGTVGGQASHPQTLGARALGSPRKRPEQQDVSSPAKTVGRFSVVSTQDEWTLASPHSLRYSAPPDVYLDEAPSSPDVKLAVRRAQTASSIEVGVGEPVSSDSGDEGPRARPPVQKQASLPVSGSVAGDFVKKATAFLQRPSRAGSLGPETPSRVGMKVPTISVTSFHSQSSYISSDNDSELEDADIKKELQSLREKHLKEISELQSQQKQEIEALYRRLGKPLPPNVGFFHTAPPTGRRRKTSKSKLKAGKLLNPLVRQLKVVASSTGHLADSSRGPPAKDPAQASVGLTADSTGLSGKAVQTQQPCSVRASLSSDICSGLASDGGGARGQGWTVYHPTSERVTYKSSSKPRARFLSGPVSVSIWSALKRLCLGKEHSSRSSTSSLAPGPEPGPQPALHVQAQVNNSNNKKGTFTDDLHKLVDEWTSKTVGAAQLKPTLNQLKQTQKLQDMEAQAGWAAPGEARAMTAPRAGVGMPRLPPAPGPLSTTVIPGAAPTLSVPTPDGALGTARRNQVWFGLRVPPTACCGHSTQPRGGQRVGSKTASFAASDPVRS", "sequence of UniProt P35372 (whole entry, looked up)": "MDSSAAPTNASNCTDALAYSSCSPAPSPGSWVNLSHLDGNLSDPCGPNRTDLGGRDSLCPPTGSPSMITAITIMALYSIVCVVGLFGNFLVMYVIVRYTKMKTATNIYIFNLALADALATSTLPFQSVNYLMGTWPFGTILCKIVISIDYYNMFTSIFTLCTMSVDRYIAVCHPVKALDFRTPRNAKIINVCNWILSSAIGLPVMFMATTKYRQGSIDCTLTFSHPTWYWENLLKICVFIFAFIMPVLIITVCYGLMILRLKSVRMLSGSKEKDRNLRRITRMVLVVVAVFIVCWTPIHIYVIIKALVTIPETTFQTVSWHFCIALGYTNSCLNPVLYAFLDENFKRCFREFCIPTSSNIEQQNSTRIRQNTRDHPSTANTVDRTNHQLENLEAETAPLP"}
{"SMILES": "Cc1sc2c(c1C)C(c1ccc(Cl)cc1)=NC(CC(=O)OC(C)(C)C)c1nnc(C)n1-2 (stereo not drawn)", "tested on": "C-C chemokine receptor type 1 (CCR1, Homo sapiens, UniProt P32246)", "test": "agonist radioligand binding", "setting": "1 µM", "measurement": "specific binding", "value": "104%"}
{"SMILES": "CC(C)CC(C(=O)N1CC2(CC1C#N)C(=O)Nc1ccccc12)N(C)C(=O)c1cc2c(F)cc(F)c(F)c2[nH]1 (stereo not drawn)", "tested on": "Replicase polyprotein 1ab, main protease (rep, Porcine epidemic diarrhea virus, UniProt P0C6Y4)", "test": "protease activity, inhibitor", "setting": "1 µM", "measurement": "remaining activity", "value": "71.1%"}
{"SMILES": "COCC1CCCCN1C(=O)n1cc(C(O)(c2ccccc2)c2ccccc2)nn1 (stereo not drawn)", "tested on": "Patatin-like phospholipase domain-containing protein 6 (Mus musculus, UniProt Q3TRM4)", "test": "probe labelling, inhibitor, competitive ABPP-SILAC, measured: Pnpla6", "system": "mouse T cells", "setting": "concentration not given, 4 h, single peptide", "how to read": "relative to: treated over DMSO cells, lower = stronger inhibition", "measurement": "SILAC activity ratio", "value": "1.29 and 1.59 and 1.46 and 1.17 and 1.58 and 1.45"}
{"SMILES": "O=C1NC(=O)c2c1c1cc(F)c[n+]3c1c1c2c2cc(O)ccc2[n]1[Ru-4]312([N]=C=S)[S+]3CC[S+]1CC[S+]2CC3 (stereo not drawn)", "tested on": "NUAK family SNF1-like kinase 1 (NUAK1, Homo sapiens, UniProt O60285)", "test": "enzyme activity", "setting": "100 nM, human enzyme, together with: 10 µM ATP", "how to read": "relative to: untreated", "measurement": "remaining activity", "value": "31%"}
{"SMILES": "C[C@@H](Cc1ccsc1)NC(=O)NC[C@H](Cc1ccc(O)cc1)N(C)C", "tested on": "Mu-type opioid receptor, with Gi1 (OPRM1, Homo sapiens, UniProt P35372)", "test": "receptor activation, agonist", "measurement": "Emax", "value": "68 ± 3%"}
{"SMILES": "COc1ccccc1-c1n[nH]c2nc(NC3CCN(C(=O)Cc4ccc(F)cc4F)CC3)ncc12", "test": "bead binding, competition bead pull-down, measured: LINJ.28.3060", "system": "Leishmania donovani extract", "setting": "10 µM", "how to read": "relative to: vehicle", "measurement": "relative abundance", "value": 0.9}
{"SMILES": "O=C(O)c1cccc(CP(=O)(O)O)n1", "tested on": "Metallo-beta-lactamase VIM-2 (VIM-2, Escherichia coli, UniProt Q5U7L7)", "test": "enzyme activity, inhibitor", "setting": "together with: nitrocefin", "measurement": "koff", "value": "0.26 ± 0.01 min⁻¹"}
{"SMILES": "C=CC(=O)NC[C@H](NC(=O)[C@H](CC1CCCCC1)NC(=O)[C@H](CCC(N)=O)NC(C)=O)C(=O)N[C@@H](CC(C)C)C(=O)N[C@@H](Cc1ccccc1)C(=O)O", "tested on": "Beta sliding clamp (Escherichia coli, UniProt P0A988)", "test": "binding, isothermal titration calorimetry", "setting": "22 °C", "measurement": "ΔG", "value": "-9.4 kcal/mol"}
{"SMILES": "O=C1NC2(CC2)COc2ncc(F)cc2[C@H]2COCCN2c2ccn3ncc1c3n2", "system": "Sprague-Dawley rat, female, serum", "setting": "oral, 20 mg/kg/day, 4 weeks daily, end of treatment", "measurement": "total cholesterol", "value": "1.57 ± 0.43 mmol/L"}
{"SMILES": "CC(C)(C)C(=O)OCOP(=O)(OCOC(=O)C(C)(C)C)C1CCCN(O)C1=O (stereo not drawn)", "tested on": "U-251", "measurement": "log TGI", "value": "-5.28 log M"}
{"SMILES": "C#CCCCCOc1ccc2c(c1)CCCN2C(=O)CCl", "tested on": "V-type proton ATPase catalytic subunit A (ATP6V1A, Homo sapiens, UniProt P38606)", "test": "mass spectrometry profiling", "system": "H460 cell lysate", "setting": "100 µM over 10 µM, UniProt P38606", "how to read": "relative to: high over low concentration", "measurement": "reactivity ratio", "value": 0.639}
{"SMILES": "CC(C)[C@H]1NC(=O)C[C@H]2/C=C/CCSSC[C@@H](NC1=O)C(=O)N[C@H](Cc1cccc3ccccc13)C(=O)NCC(=O)O2", "tested on": "Serine/threonine-protein kinase WNK2 (WNK2, Homo sapiens, UniProt Q9Y3S1)", "test": "enzyme activity, inhibitor", "setting": "10 µM", "measurement": "inhibition", "value": "3.2%"}
{"SMILES": "CON(C(=O)c1cn(C)nc1C(F)F)C(C)Cc1c(Cl)cc(Cl)cc1Cl (stereo not drawn)", "tested on": "SDHD/SDHC/SDHB (Sus scrofa, UniProt A5GZW8+D0VWV4+Q007T0)", "test": "enzyme activity, inhibitor, DCIP reduction", "system": "pig", "setting": "0.1 µM, together with: DCIP 5 µM", "measurement": "reaction velocity", "value": "0.00238 µM/s and 0.00279 µM/s"}
{"SMILES": "CC[C@H](C)[C@H](NC(=O)[C@H](CO)NC(=O)[C@H](Cc1ccc(O)cc1)NC(=O)[C@H](Cc1ccc(O)cc1)NC(=O)[C@H](CC(N)=O)NC(=O)CNC(=O)[C@H](CO)NC(=O)[C@H](Cc1ccc(O)cc1)NC(=O)[C@H](CO)NC(=O)[C@H](CO)NC(=O)[C@H](CC(N)=O)NC(=O)COCCOCCNC(=O)CN1CCN(CC(=O)O)CCN(CC(=O)O)CCN(CC(=O)O)CC1)C(=O)N[C@@H](CC(C)C)C(N)=O [copper-64 labelled]", "test": "dynamic PET", "system": "KPC mouse, pancreatic cancer model, tumor", "setting": "intravenous, 0.4 min, 49 days after tamoxifen", "measurement": "tumour uptake", "value": "9.16 %ID/mL"}
{"SMILES": "CS(C)(=O)=Nc1ccc(-c2ccc(-c3nc4cc(O[C@@H]5CO[C@H]6[C@@H]5OC[C@H]6O)[nH]c4cc3F)cc2)cc1", "tested on": "Receptor tyrosine-protein kinase erbB-2 (ERBB2, Homo sapiens, UniProt P04626)", "test": "enzyme activity, inhibitor", "setting": "10 µM", "measurement": "inhibition", "value": "-14%"}
{"SMILES": "CC(=O)c1ccc(/N=N/c2cccc([B-](F)(F)F)c2)cc1.[K+]", "tested on": "Chymotrypsinogen A (Bos taurus, UniProt P00766)", "test": "enzyme activity, inhibitor", "setting": "together with: Suc-AAPF-AMC", "how to read": "relative to: Ki cis over Ki trans", "measurement": "switching factor", "value": "2.4 ± 0.5"}
{"SMILES": "COC(=O)[C@@H](NC(=O)c1nn(Cc2ccc(F)cc2)c2cc(OCCCCNC(=N)N)ccc12)C(C)(C)C", "tested on": "Cannabinoid receptor 1 (CNR1, Homo sapiens, UniProt P21554)", "test": "GTPase", "how to read": "relative to: FUB", "measurement": "Gi GTP turnover maximum", "value": "110%"}
{"SMILES": "CN(C)[C@H]1C[C@@]23CC[C@@]4(O2)C(=CC[C@]2(C)[C@@H](c5ccc6ccncc6c5)CC[C@H]24)C=C3[C@@H](O)[C@@H]1O", "tested on": "Serine/threonine-protein kinase Nek3 (NEK3, Homo sapiens, UniProt P51956)", "test": "ATP probe labelling, inhibitor, KiNativ profiling", "setting": "0.1 µM", "measurement": "inhibition", "value": "3.8%"}
